# Measurements pooled from the literature.
# Each line is one published result; not all experiments were run side by side.
# KIT: Mast/stem cell growth factor receptor Kit (KIT, Homo sapiens, UniProt P10721)
# UniProt P10721, sequence (whole entry, unmodified, looked up): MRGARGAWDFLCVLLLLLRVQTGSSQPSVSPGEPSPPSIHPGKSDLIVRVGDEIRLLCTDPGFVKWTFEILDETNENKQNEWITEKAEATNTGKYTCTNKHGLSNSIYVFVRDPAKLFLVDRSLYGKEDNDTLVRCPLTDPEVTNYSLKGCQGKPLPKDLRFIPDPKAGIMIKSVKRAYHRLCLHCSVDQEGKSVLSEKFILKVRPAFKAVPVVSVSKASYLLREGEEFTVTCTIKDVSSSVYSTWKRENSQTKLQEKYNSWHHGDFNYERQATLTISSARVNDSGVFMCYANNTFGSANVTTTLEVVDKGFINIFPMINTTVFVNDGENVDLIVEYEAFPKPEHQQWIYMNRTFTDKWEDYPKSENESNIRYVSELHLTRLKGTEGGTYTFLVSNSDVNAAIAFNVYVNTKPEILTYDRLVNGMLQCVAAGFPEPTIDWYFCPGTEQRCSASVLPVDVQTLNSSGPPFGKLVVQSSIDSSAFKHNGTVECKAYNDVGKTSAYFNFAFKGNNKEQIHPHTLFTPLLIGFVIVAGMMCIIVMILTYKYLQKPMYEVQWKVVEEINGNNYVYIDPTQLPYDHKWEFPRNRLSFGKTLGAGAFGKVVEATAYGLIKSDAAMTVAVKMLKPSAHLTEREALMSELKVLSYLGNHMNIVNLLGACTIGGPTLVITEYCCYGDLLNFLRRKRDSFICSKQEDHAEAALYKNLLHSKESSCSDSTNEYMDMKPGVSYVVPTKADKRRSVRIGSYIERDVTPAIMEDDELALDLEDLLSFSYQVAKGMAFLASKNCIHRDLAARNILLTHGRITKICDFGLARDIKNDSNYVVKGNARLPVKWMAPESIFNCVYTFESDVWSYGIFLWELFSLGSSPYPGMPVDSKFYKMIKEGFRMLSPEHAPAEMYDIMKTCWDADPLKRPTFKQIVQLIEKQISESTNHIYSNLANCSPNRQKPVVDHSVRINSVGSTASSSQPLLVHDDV
# KIT D816V: Mast/stem cell growth factor receptor Kit (KIT, Homo sapiens, UniProt P10721, D816V)
SMILES,target,test,setting,measurement,value
Nc1ncnc2occ(-c3ccc(NC(=O)Nc4cc(C(F)(F)F)ccc4F)cc3)c12,KIT,"cell-free assay, inhibitor",20 µM,remaining signal,0%
CCCCC(=O)Nc1ccc(-c2ccc3ncn(CCC)c(=O)c3c2)cn1,"Mast/stem cell growth factor receptor Kit (KIT, Homo sapiens, UniProt P10721, V559D/V654A)","binding, competition with immobilised ligand",0.5 µM,remaining binding,100%
Cc1cc([C@@H](C)Nc2ccccc2C(=O)O)c2nc(N3CCC(F)(F)CC3)c(C#N)c(=O)n2c1,KIT D816V,"binding, competition with immobilised ligand",1 µM,remaining binding,100%
FC(F)(F)Oc1cccc(-c2cnc3ccc(-c4ccncc4)nn23)c1,KIT,"cell-free assay, competition with immobilised ligand",5 µM,remaining binding,20%
COc1cc(-c2cncc3c2CN(C)Cc2cc(N4CCNCC4)ccc2-3)cc(OC)c1OC,"Mast/stem cell growth factor receptor Kit (KIT, Homo sapiens, UniProt P10721, V560G)","enzyme activity, inhibitor",1 µM,remaining activity,92%
CNc1ncc2c(/C=C/C(=O)N3CCC(OC)CC3)nn(Cc3cccc(C(F)(F)F)c3)c2n1,KIT,"enzyme activity, inhibitor, radiometric",1 µM,remaining activity,82%
C1=C/COCc2cc(ccc2OCCN2CCCC2)Nc2nccc(n2)-c2cccc(c2)COC/1,KIT D816V,binding,0.1 µM,remaining binding,61%
C=CC(=O)N1CCC(COCC(=O)N2CCN(c3nc(-c4cnc(N)nc4C(F)F)nc(N4CCOC[C@@H]4C)n3)CC2)CC1,"Mast/stem cell growth factor receptor Kit (KIT, Homo sapiens, UniProt P10721, D816H)","binding, competition with immobilised ligand",1 µM,remaining binding,57%
